Results collected from several papers.
“And” joins repeats or separate records; there may be more than shown. ± marks the error that the study gave.

The clearance of `O=[N][Fe]1([N]=O)[S](CCO)[Fe]([N]=O)([N]=O)[S]1CCO` is reported as 0.29 L/h (C57BL/6JNarl mouse, plasma; oral, dose not given).
With `CC(=O)N([O-])CCCCCNC(=O)CCC(=O)N([O-])CCCCCNC(=O)CCC(=O)N([O-])CCCCCN.[89Zr+4]` the tracer uptake was 2.09 %ID/g (mouse, liver; 4 h).
`CCCCN1C(=O)c2cccc3c(NCCCCCCN4CCOCC4)ccc(c23)C1=O` has an absorption maximum of 433 nm (acetonitrile).
`Cc1noc(C)c1Cn1cc(N2C(=O)CN(Cc3cccc(O[C@@H]4O[C@H](C(=O)O)[C@@H](O)[C@H](O)[C@H]4O)c3)C2=O)cn1` gave a plasma concentration of 2110 ng/mL (Sprague-Dawley rat, male; oral, 10 mg/kg of parent drug, 0.25 h).
`CCCCN1C(=O)c2cccc3c(NCCCCCN4CCOCC4)ccc(c23)C1=O` — result for “fluorescence quantum yield”: 0.27 (water; pH 6.0).
With `CN([O-])C(=O)CN1CCNCCN(CC(=O)N(C)[O-])CC1.[89Zr+4]` the tracer uptake was 0.09 %ID/g (mouse, muscle; intravenous, 4 h).
`Cc1ccc(OCC(=O)N(Cc2cccs2)c2ccn[nH]2)cc1` — result for “remaining parent compound”: 29.5% (Sprague-Dawley rat liver microsomes; 10 µM, 10 min).
`[2H]C1([2H])CC[C@@H](C[C@@H](C#N)NC(=O)[C@@H]2[C@@H]3[C@H](CN2C(=O)[C@@H](NC(=O)C(F)(F)F)C(C)(C)C)C3(C)C)C(=O)N1` gave an intrinsic clearance of 136 µL/min/mg (mouse liver microsomes; microsomes 0.5 mg/mL).
With `COc1cccc(OC)c1-c1cc(C(=O)NC2(C(=O)O)C3CC4CC(C3)CC2C4)nn1-c1ccc(C(=O)N(C)CCOCCOCCN(C)C(=O)[C@H](CCCCNC(=O)[C@H](CC(C)C)NC(=O)C2OC2C(=O)O)NC(=O)CN2CCN(CC(=O)[O-])CCN(CC(=O)[O-])CCN(CC(=O)[O-])CC2)cc1C(C)C.[177Lu+3]` (mixture of isomers) the tumour-to-liver ratio was 2.59 (mouse, HT-29 xenograft; 4 h post injection, biodistribution; relative to: tumour over liver uptake).
For `Cc1c(Cc2cccc(OC(C)(C)C(=O)O)c2)c2ccc(C(=O)N[C@@H](C)c3cccc(C(C)(C)C)c3)cc2n1C(C)C`, the half-life was 56 min (metabolic stability; mouse, liver microsomes).
With `CCCCN1C(=O)c2cccc3c(NCCCCN4CCOCC4)ccc(c23)C1=O` the absorption maximum was 445 nm (DMSO).
`CC(CCC(=O)NCC(=O)O)C1CCC2C3CCC4CC(OC5OC(C(=O)O)C(O)C(O)C5O)CCC4(C)C3CC(O)C12C` (stereo not shown) — result for “mean daily plasma concentration”: 0.151 ± 0.024 µM (human, plasma; control).
The degradation of `CC[C@H](C)[C@@H](C(=O)N[C@@H](CC(C)C)C(=O)N[C@@H](CO)C(=O)N[C@@H](CO)C(=O)N[C@H](C(=O)N[C@@H](CCC(=O)O)C(=O)N[C@H](C(=O)NCC(=O)N[C@@H](CO)C(=O)N[C@@H](CC(N)=O)C(=O)N[C@H](C(=O)N1C[C@H](O)C[C@H]1C(N)=O)[C@@H](C)O)C(C)C)[C@@H](C)O)N(C)C(=O)[C@H](C)NC(=O)CN(C)C(=O)[C@H](Cc1ccccc1)NC(=O)[C@H](CO)NC(=O)[C@H](CO)NC(=O)[C@H](CCCNC(=N)N)NC(=O)[C@H](CCC(N)=O)NC(=O)[C@H](CC(C)C)NC(=O)[C@H](Cc1ccccc1)NC(=O)[C@H](Cc1c[nH]cn1)NC(=O)[C@H](C)NC(=O)[C@H](CC(C)C)NC(=O)[C@H](CCCNC(=N)N)NC(=O)[C@H](CCC(=O)O)NC(=O)[C@@H](NC(=O)[C@H](C)NC(=O)[C@@H]1CSSC[C@H](NC(=O)[C@H](CCCNC(=N)N)NC(=O)CC[C@H](NC(=O)CCCCCCCCCCCCCCCCCCC(=O)O)C(=O)O)C(=O)NCC(=O)N[C@@H]([C@@H](C)O)C(=O)N[C@@H](C)C(=O)N[C@@H]([C@@H](C)O)C(=O)N1)[C@@H](C)O` is reported as 7% (RP-HPLC; aqueous solution; 7 days, pH 6, 40 °C).
`O=C(Nc1ccc(C(F)F)cc1)[C@H](CC1CCCCC1)Nc1nn2c(=O)ccnc2s1` has a dose-normalized AUC of 113 ng·h/mL (female BALB/c nude mice, plasma; oral, 10 mg/kg).
`CCCCN1C(=O)c2cccc3c(NCCCN4CCOCC4)ccc(c23)C1=O` gave a fluorescence lifetime of 9.9 ns (dioxane).
`CN1CCC[C@]1(C)/C=C/S(=O)(=O)NC(=O)Nc1c2c(cc3c1CC(O)C3)CCC2` (stereo partly shown) has an AUC(0-tau) of 32000 ng·h/mL (human, plasma; oral, 50 mg twice daily of parent drug, day 1, metabolite of dosed drug).
The remaining compound of `C=CC(=O)Nc1cc(Nc2nccc(-c3cn(C)c4ccccc34)n2)c(OC)cc1N(C)CCNC` is reported as 19.9% (human, plasma; 270 ng/mL, 30 d, room temperature, high QC level).
For `N=C(N)NCCC[C@@H]1NC(=O)[C@H](CO)NC(=O)[C@@H](NC(=O)[C@H](CO)NC(=O)[C@H](CO)NC(=O)[C@H](Cc2c[nH]c3ccccc23)NC(=O)CNC(=O)[C@H](CO)NC(=O)[C@@H](N)Cc2c[nH]c3ccccc23)CSSC[C@@H](C(=O)NCC(=O)O)NC(=O)[C@H](CO)NC1=O`, the clearance was 1400 L/h (patients, plasma; intravenous, 5 mg/kg, thrice weekly, median).
For `CC[C@H](C)[C@H](NC(=O)C[C@H](NC(=O)CN1CCN2CCN(CC1)CC(=O)[O][Al]([18F])[O]C(=O)C2)C(=O)O)C(=O)N[C@H]1CCc2cccc3c2N(C1=O)[C@H](C(=O)NCc1cn[nH]n1)C3`, “tumour to muscle ratio” read 7.46 (PET; C57BL/6J mice MC-38 tumour; 30 min post injection, added: anti-PD-1 antibody treatment).
`C=C(NC(=O)c1csc(-c2nc3c(cc2O)-c2nc(cs2)C(=O)NC(C(C)O)C(=O)NC(=C(C)OC)c2nc(cs2)C(=O)NC2c4nc(cs4)C(=O)NC(COC(=O)c4c5c6c(cccc6n4O)COC(=O)C(OC4CC(C)(O)C(N(C)C)C(C)O4)C2OC5)c2nc-3cs2)n1)C(N)=O` (stereo not shown) gave an MRT(0-last) of 1.61 h (cynomolgus monkey, male, plasma; intravenous infusion, 3 mg/kg single dose).
`N#C[C@@H]1CC(F)(F)CN1C(=O)CNC(=O)c1ccnc2c(NC(=O)[C@H](CCCCNC(=O)CCOCCOCCOCCOCCOCCOCCNC(=O)CN3CCN(CC(=O)[O-])CCN(CC(=O)[O-])CCN(CC(=O)[O-])CC3)NC(=O)CCCc3ccc(I)cc3)cccc12.[177Lu+3]` gave a tissue uptake of 10 ± 4.4 %ID/g (mouse, U-87 MG tumour xenograft, lung; 1 h).
For `CCC(=O)N(CC#N)S(=O)(=O)c1ccc(C)cc1`, “degradation rate constant” read 14.7 h⁻¹ (chemical stability, HPLC-MS; borate buffered saline; pH 10.2, no N-acetyl-lysine).
The tissue uptake of `COc1cccc(OC)c1-c1cc(C(=O)NC2(C(=O)O)C3CC4CC(C3)CC2C4)nn1-c1ccc(C(=O)N(C)CCCN(C)C(=O)[C@H](CCCCNC(=O)[C@H](CC(C)C)NC(=O)C2OC2C(=O)O)NC(=O)CN2CCN(CC(=O)[O-])CCN(CC(=O)[O-])CCN(CC(=O)[O-])CC2)cc1C(C)C.[177Lu+3]` (mixture of isomers) is reported as 0.39 %ID/g (mouse, HT-29 xenograft, muscle; 4 h post injection).
With `CC[C@H](C)[C@H](NC(=O)CNC(=O)[C@H](C)NC(=O)[C@H](CC(=O)O)NC(=O)[C@H](CO)NC(=O)[C@H](C)NC(=O)[C@H](CC(C)C)NC(=O)[C@H](CCCCN)NC(=O)[C@H](CCCCN)NC(=O)[C@H](CCSC)NC(=O)[C@H](CC(N)=O)NC(=O)[C@H](Cc1ccccc1)NC(=O)[C@H](CC(=O)O)NC(=O)[C@@H](N)CCSC)C(=O)N[C@@H](Cc1c[nH]c2ccccc12)C(=O)N[C@@H](Cc1ccccc1)C(=O)N[C@H](C(=O)N[C@@H](CCCNC(=N)N)C(=O)N[C@@H](C)C(=O)N[C@H](C(=O)N[C@@H](CCC(N)=O)C(=O)N[C@@H](Cc1ccccc1)C(=O)N[C@H](C(=O)N[C@@H](CCC(=O)O)C(=O)N[C@@H](CCC(=O)O)C(=O)N[C@@H](CCCCN)C(=O)N[C@@H](Cc1ccccc1)C(=O)NCC(=O)N[C@@H](CCC(N)=O)C(=O)N[C@@H](C)C(N)=O)[C@@H](C)O)C(C)C)[C@@H](C)O` the TFE midpoint was 2.35 ± 0.1 M (circular dichroism; aqueous TFE; 50 µM, pH 7.4, 20 °C).
`CN(O)C(=O)CCC(=O)NCCCN(CCCCN(CCCNC(=O)CCC(=O)N(C)O)C(=O)CCC(=O)N(C)O)C(=O)CCC(=O)N(C)O.[89Zr]` has a tracer uptake of 0.01 %ID/g (mouse, pancreas; 24 h).
`O=C(Nc1cnccc1-c1ccc([18F])cc1)c1ccnc(NC(=O)C2CC2)c1` has an SUV of 1.23 (ex vivo gamma counting; FVB/NJ mice, both sexes, stomach; intravenous, 120 min, mean, P-gp inhibitor pretreatment, added: tariquidar 15 mg/kg iv).
The accuracy of `O=C(O)/C=C\c1cc2ccoc2cc1O[C@@H]1O[C@H](CO)[C@@H](O)[C@H](O)[C@H]1O` is reported as 107% (post-procedure stability; rat plasma; 200 ng/mL, 3 h, room temperature).
With `C/C(N)=N/C(=N\S(=O)(=O)c1ccc(C(F)(F)F)cc1)N1C[C@H](c2ccccc2)C(c2ccc(Cl)cc2)=N1` the half-life was 642 min (beagle dog, plasma; oral, 24 mg/kg).
`CN1CCC[C@]1(C)/C=C/S(=O)(=O)NC(=O)Nc1c2c(cc3c1CCC3O)CCC2` (stereo partly shown) has an AUC(0-tau) of 63400 ng·h/mL (human, plasma; oral, 12.5 mg twice daily of parent drug, day 1, metabolite of dosed drug).
`COc1ccc(Nc2nc(Nc3ccc(OCCOCC[18F])cc3)ncc2Br)cc1` gave an uptake ratio of 1.26 (ICR mice, S180 tumour; intravenous, 370 kBq, 60 min; relative to: tumour over blood).
`Cc1cc(-c2ccc(C(=O)[C@@H]3CCCC[C@H]3C(=O)Nc3cnn4c3C(=O)NCC4)cc2)[nH]n1`: “cumulative radioactivity recovery” 6.67% and 5.62% and 4.93% and 6.32% and 4.97% and 6.79% (human, urine; oral, 200 mg, 0-144 h; relative to: dose).
For `O=C(Nc1cccc(C(=O)N2CCC(c3nc(-c4ccccc4)n[nH]3)CC2)c1)c1ccccc1`, “intrinsic clearance, scaled” read 340 mL/min/kg (CD-1 mouse liver microsomes; pH 7.4, added: NADPH).
With `Cc1nc(N)nc2c1C(=O)N[C@@H](c1ccc(F)cc1-c1cccc(OCC[18F])n1)C2` the SUV was 0.36 ± 0.01 (ex vivo biodistribution; C57BL/6 mice, brain; intravenous, 1 MBq, 30 min).
`CC(C)(O)c1ncc([S@](N)(=O)=NC(=O)Nc2c3c(cc4c2CCC4)CCC3)s1`: “subjects with adverse events” 13% (measured: Psychiatric disorders; healthy human volunteers; oral, 25 mg twice daily, 14 days, enteric-coated tablet).
`O=C(Nc1cnccc1-c1ccc([18F])nc1)c1ccnc(NC(=O)C2CC2)c1` has an SUV of 0.185 (FVB/NJ mouse, both sexes, brain; intravenous, 5 min).
`CCCCN1C(=O)c2cccc3c(NCCCCCCCCN4CCOCC4)ccc(c23)C1=O` gave an absorption maximum of 453 nm (water; pH 6.0).
The tumour-to-tissue ratio of `CCCC[C@H](NC(=O)CNC(=O)CNC(=O)[C@H](CCCCNC(=O)[C@H](CC(=O)O)NC(=O)C(C)c1ccc(CC(C)C)cc1)NC(=O)CN1CCN(CC(=O)O)CCN(CC(=O)O)CCN(CC(=O)O)CC1)C(=O)N[C@H]1CC(=O)NCCCC[C@@H](C(N)=O)NC(=O)[C@H](Cc2c[nH]c3ccccc23)NC(=O)[C@H](CCCNC(=N)N)NC(=O)[C@@H](Cc2ccccc2)NC(=O)[C@H](Cc2c[nH]cn2)NC1=O` (stereo partly shown) [lutetium-177 labelled] is reported as 1.77 (C57 mice, tumour; intravenous, 0.037 MBq, 4 h; relative to: kidney).

A few entries again:
`CCCCN1C(=O)c2cccc3c(NCCCCCCCCN4CCOCC4)ccc(c23)C1=O` gave an absorption maximum of 453 nm (water; pH 6.0).
`CN1CCC[C@]1(C)/C=C/S(=O)(=O)NC(=O)Nc1c2c(cc3c1CCC3O)CCC2` (stereo partly shown) has an AUC(0-tau) of 63400 ng·h/mL (human, plasma; oral, 12.5 mg twice daily of parent drug, day 1, metabolite of dosed drug).
With `CC(=O)N([O-])CCCCCNC(=O)CCC(=O)N([O-])CCCCCNC(=O)CCC(=O)N([O-])CCCCCN.[89Zr+4]` the tracer uptake was 2.09 %ID/g (mouse, liver; 4 h).
With `CCCCN1C(=O)c2cccc3c(NCCCCN4CCOCC4)ccc(c23)C1=O` the absorption maximum was 445 nm (DMSO).
`CCCCN1C(=O)c2cccc3c(NCCCCCCN4CCOCC4)ccc(c23)C1=O` has an absorption maximum of 433 nm (acetonitrile).
